Measurements gathered from unrelated publications.
Parts stem from different laboratories: compare values within a part only.
Sequence of UniProt P08069 (whole entry, looked up): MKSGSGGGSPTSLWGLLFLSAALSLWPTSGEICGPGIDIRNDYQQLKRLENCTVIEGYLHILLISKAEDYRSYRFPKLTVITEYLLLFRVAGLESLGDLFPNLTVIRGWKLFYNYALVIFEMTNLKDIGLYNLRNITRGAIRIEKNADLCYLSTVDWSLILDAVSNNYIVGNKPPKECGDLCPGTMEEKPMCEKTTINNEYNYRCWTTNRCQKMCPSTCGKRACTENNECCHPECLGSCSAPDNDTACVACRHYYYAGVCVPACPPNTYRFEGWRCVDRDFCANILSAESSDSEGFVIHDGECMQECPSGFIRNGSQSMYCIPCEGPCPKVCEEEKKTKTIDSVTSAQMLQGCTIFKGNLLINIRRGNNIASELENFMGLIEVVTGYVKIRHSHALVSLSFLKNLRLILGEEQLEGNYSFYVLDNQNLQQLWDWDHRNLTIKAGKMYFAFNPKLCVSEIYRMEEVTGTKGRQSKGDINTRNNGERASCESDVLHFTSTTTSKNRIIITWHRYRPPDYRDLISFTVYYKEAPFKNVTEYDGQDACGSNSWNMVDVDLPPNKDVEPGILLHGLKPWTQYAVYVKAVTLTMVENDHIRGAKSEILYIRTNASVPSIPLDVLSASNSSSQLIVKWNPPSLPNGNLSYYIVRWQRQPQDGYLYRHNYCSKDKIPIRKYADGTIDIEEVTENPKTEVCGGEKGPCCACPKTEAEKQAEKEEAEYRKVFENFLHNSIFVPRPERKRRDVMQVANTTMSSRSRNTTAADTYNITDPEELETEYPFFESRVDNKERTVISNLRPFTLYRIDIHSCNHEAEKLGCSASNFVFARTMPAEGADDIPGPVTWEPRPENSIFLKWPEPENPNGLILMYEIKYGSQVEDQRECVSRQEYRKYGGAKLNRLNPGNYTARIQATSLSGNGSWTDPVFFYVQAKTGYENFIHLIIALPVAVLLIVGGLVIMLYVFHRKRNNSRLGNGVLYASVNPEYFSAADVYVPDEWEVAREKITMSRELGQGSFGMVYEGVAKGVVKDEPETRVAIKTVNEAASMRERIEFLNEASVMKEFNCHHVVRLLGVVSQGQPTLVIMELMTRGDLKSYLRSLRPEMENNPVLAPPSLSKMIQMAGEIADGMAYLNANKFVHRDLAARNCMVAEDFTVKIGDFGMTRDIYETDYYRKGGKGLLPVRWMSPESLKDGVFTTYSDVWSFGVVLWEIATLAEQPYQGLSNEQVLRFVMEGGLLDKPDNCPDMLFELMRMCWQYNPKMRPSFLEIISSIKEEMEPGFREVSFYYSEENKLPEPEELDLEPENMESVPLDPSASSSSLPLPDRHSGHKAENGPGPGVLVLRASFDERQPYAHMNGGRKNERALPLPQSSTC
Sequence of UniProt Q04759 (whole entry, looked up): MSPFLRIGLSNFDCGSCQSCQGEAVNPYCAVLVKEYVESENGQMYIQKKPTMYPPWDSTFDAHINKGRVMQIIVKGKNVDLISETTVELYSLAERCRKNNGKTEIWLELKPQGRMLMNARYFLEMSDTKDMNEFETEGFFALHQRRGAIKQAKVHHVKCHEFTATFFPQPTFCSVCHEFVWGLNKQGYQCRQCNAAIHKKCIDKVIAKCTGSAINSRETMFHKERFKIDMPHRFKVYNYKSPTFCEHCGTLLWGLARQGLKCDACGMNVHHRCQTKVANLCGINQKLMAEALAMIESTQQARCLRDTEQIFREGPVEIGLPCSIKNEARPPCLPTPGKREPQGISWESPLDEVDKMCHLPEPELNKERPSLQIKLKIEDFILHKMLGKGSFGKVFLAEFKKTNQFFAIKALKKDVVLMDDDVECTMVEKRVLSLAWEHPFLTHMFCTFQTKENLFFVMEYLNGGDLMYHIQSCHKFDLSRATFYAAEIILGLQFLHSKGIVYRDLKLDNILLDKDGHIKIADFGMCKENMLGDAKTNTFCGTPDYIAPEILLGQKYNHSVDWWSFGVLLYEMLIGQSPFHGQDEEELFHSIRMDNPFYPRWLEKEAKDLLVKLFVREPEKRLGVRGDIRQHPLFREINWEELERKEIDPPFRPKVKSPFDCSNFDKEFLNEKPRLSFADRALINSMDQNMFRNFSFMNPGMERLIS
Sequence of UniProt O15146 (whole entry, looked up): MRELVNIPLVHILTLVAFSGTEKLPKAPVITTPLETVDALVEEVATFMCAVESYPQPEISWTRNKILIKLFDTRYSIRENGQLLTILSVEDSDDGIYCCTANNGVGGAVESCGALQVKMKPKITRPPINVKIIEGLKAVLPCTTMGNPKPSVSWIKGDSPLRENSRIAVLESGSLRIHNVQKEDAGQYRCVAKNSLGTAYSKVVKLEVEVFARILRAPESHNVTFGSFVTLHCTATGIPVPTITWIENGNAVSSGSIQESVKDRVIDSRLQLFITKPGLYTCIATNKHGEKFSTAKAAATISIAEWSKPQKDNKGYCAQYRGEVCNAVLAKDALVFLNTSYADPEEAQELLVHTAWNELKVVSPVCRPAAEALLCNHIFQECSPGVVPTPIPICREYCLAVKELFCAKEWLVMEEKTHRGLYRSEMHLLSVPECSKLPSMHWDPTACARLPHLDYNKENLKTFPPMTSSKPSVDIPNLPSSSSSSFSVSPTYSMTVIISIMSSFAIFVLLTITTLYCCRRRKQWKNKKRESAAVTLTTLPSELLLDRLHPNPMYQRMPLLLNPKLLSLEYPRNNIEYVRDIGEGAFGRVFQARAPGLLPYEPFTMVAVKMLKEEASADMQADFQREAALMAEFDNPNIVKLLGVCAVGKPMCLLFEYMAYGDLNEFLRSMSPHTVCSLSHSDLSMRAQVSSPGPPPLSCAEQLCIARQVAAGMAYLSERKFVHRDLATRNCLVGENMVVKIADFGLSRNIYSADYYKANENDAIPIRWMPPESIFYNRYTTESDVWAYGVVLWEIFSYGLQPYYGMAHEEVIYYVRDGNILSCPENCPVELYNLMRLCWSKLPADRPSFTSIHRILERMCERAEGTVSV
Sequence of UniProt Q05513 (whole entry, looked up): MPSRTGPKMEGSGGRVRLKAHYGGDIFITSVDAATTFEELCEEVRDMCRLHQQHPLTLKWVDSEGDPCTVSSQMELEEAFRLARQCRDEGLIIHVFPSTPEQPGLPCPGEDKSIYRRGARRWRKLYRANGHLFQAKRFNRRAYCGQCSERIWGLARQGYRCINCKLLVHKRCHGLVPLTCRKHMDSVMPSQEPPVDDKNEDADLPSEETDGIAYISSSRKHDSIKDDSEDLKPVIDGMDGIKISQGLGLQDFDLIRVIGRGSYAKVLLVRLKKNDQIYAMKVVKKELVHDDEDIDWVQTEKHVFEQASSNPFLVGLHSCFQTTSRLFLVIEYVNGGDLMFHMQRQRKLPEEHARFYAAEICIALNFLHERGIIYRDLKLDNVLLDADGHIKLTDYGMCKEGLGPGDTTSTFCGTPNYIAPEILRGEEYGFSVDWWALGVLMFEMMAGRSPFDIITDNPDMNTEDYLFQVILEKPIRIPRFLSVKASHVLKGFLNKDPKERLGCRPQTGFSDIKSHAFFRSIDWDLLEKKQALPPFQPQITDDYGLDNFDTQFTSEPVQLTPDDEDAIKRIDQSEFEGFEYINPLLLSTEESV
Sequence of UniProt Q00535 (whole entry, looked up): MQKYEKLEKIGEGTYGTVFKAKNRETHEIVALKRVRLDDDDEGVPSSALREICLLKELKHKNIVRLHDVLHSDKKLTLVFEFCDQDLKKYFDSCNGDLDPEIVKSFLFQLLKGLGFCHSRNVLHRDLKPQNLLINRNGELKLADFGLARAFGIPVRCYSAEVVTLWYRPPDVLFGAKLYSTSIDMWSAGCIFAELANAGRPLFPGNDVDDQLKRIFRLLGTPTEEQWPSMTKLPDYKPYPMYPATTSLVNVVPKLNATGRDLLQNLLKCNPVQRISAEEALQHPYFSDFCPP
Sequence of UniProt P10721 (whole entry, unmodified, looked up): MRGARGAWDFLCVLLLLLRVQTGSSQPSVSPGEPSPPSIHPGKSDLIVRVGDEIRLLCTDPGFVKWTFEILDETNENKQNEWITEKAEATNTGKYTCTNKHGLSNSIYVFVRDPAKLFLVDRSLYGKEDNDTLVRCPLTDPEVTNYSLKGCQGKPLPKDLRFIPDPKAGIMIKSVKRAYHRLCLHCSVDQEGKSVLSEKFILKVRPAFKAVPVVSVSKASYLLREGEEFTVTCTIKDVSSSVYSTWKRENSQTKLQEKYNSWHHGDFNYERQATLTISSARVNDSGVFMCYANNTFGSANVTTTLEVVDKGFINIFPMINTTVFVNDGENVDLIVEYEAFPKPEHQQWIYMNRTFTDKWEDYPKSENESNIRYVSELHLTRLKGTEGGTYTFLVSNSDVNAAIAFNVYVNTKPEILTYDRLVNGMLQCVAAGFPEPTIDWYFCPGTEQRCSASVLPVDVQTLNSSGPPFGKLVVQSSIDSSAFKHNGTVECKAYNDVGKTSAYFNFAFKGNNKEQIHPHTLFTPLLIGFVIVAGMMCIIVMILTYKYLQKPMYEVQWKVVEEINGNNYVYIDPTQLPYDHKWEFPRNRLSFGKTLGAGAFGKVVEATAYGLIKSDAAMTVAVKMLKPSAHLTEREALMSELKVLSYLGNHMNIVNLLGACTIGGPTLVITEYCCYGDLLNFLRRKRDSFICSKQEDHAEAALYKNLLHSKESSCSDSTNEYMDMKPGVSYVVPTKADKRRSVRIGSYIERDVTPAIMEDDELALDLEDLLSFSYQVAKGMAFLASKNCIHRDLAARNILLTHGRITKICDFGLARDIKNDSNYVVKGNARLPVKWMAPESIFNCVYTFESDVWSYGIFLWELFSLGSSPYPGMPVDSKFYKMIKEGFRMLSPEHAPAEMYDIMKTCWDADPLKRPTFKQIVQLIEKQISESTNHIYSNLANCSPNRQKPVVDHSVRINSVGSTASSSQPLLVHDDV

Sample 1
Structure (SMILES): O=C1NC(c2ccccn2)Sc2ccccc21 (stereo not drawn)
Read-out: cell-free assay
Technique: competition with immobilised ligand
Concentration: 1 µM
MAP kinase-interacting serine/threonine-protein kinase 1 (MKNK1, Homo sapiens, UniProt Q9BUB5) — remaining binding: 82%.
The remaining binding was 79% (Mast/stem cell growth factor receptor Kit (KIT, Homo sapiens, UniProt P10721, D816H)).
The remaining binding was 100% (Dual specificity mitogen-activated protein kinase kinase 6 (MAP2K6, Homo sapiens, UniProt P52564)).
For Receptor-type tyrosine-protein kinase FLT3 (FLT3, Homo sapiens, UniProt P36888, D835V): remaining binding read 100%.
Inhibitor of nuclear factor kappa-B kinase subunit epsilon (IKBKE, Homo sapiens, UniProt Q14164) — remaining binding: 94%.

Sample 2
Medium: hydrocarbon/water
With `CC[C@@H]1C(=O)N(C)[C@@H](C)C(=O)N[C@@H](CC(C)C)C(=O)N2CCC[C@@H]2C(=O)N(C)[C@@H](C)C(=O)N[C@@H](CC(C)C)C(=O)N1C` the logD was -0.291.
With `CCCN1CC(=O)N[C@@H](CC)C(=O)N(C)[C@@H](C)C(=O)N[C@@H](CC(C)C)C(=O)N(C)Cc2cn(nn2)CC(=O)N[C@@H](CC(C)C)C(=O)N(C)[C@@H](C)C(=O)N[C@@H](CC(C)C)C(=O)N2CCC[C@@H]2C1=O` the logD was -1.09.
For `CC(C)CC1NC(=O)CN(CC2CCOCC2)C(=O)C2CCCN2C(=O)C(CC(C)C)NC(=O)C(C)N(C)C(=O)C(CC(C)C)NC(=O)CN(CCCOC(C)C)C(=O)C2CCCN2C(=O)C(Cc2ccccc2)NC(=O)C(C)N(C)C1=O` (stereo not drawn), the logD was 2.39.
For `CCC[C@@H]1NC(=O)[C@H](C)N(C)C(=O)[C@H](CC(C)C)NC(=O)Cn2cc(nn2)CN(C)C(=O)[C@H](CC(C)C)NC(=O)[C@H](C)N(C)C(=O)[C@H](CC)NC(=O)[C@H](CCC)N(C)C(=O)[C@H]2CCCN2C1=O`, the logD was -1.02.
The logD of `CCOC(=O)[C@@H]1CSCC(=O)N[C@@H](CC)C(=O)N(CC(C)C)CC(=O)N[C@@H](CC(C)C)C(=O)N(C)[C@H](C)C(=O)N(C)[C@@H](C)C(=O)N[C@H](CC(C)C)C(=O)N(C)[C@H](C)C(=O)N[C@@H](CC(C)C)C(=O)N1C` is reported as 0.905.
For `CCOC(=O)[C@@H]1CSCC(=O)N[C@@H](CC)C(=O)N(C)[C@@H](C)C(=O)N[C@@H](CC(C)C)C(=O)N2CCC[C@@H]2C(=O)N(CC(C)C)CC(=O)N[C@H](CC(C)C)C(=O)N(C)[C@H](C)C(=O)N[C@@H](CC(C)C)C(=O)N1C`, the logD was 0.816.
`CC(C)C[C@@H]1NC(=O)[C@H](Cc2ccccc2)NC(=O)[C@H]2CCCN2C(=O)[C@H](CC(C)C)NC(=O)[C@H](C)NC(=O)[C@@H](C)NC1=O` gave a logD of -1.64.
`CCN1CC(=O)N[C@@H](CC(C)C)C(=O)N2CCC[C@@H]2C(=O)N(C)[C@@H](C)C(=O)N[C@@H](CC2CCCCC2)C(=O)N(C)[C@@H](C)C(=O)N[C@@H](CC(C)C)C(=O)N(C)Cc2cn(nn2)CC(=O)N[C@@H](CC(C)C)C1=O` gave a logD of 0.565.
With `CC(C)C[C@@H]1NC(=O)[C@H](C)N(C)C(=O)[C@H]2CCCN2C(=O)[C@H](CC(C)C)NC(=O)[C@H](C)N(C)C(=O)[C@@H](C)N(C)C1=O` the logD was -0.893.

Sample 3
Structure (SMILES): Cc1ccc(NC(=O)c2ccc(CN3CCN(C)CC3)cc2)cc1Nc1nccc(-c2cccnc2)n1
Read-out: enzyme activity
Mode: inhibitor
Concentration: 0.5 µM
Relative to: control
For Activin receptor type-1-like (ACVRL1, Homo sapiens, UniProt P37023): remaining activity read 106%.
It gave 103% for remaining activity (Cyclin-dependent kinase 5, with p35 (CDK5, Homo sapiens, UniProt Q00535)).
It gave 99.5% for remaining activity (SRSF protein kinase 1 (SRPK1, Homo sapiens, UniProt Q96SB4)).
It gave 93.7% for remaining activity (Tyrosine-protein kinase receptor TYRO3 (TYRO3, Homo sapiens, UniProt Q06418)).
For Calcium/calmodulin-dependent protein kinase type 1 (CAMK1, Homo sapiens, UniProt Q14012): remaining activity read 102%.
The remaining activity was 112% (Serine/threonine-protein kinase PAK 6 (PAK6, Homo sapiens, UniProt Q9NQU5)).
For Muscle, skeletal receptor tyrosine-protein kinase (MUSK, Homo sapiens, UniProt O15146): remaining activity read 95.7%.
For Mitogen-activated protein kinase kinase kinase 20 (MAP3K20, Homo sapiens, UniProt Q9NYL2): remaining activity read 98.2%.
Ephrin type-A receptor 2 (EPHA2, Homo sapiens, UniProt P29317) — remaining activity: 87.1%.
It gave 95.7% for remaining activity (Insulin-like growth factor 1 receptor (IGF1R, Homo sapiens, UniProt P08069)).
For Ephrin type-A receptor 6 (EPHA6, Homo sapiens, UniProt Q9UF33): remaining activity read 100%.
It gave 105% for remaining activity (Serine/threonine-protein kinase PAK 1 (PAK1, Homo sapiens, UniProt Q13153)).
The remaining activity was 88.6% (Tyrosine-protein kinase Yes (YES1, Homo sapiens, UniProt P07947)).
For Tyrosine-protein kinase JAK1 (JAK1, Homo sapiens, UniProt P23458): remaining activity read 100%.
It gave 96.3% for remaining activity (Protein kinase C zeta type (PRKCZ, Homo sapiens, UniProt Q05513)).
For Ribosomal protein S6 kinase alpha-3 (RPS6KA3, Homo sapiens, UniProt P51812): remaining activity read 101%.
For Protein kinase C theta type (PRKCQ, Homo sapiens, UniProt Q04759): remaining activity read 101%.

Sample 4
Cell line: HaCaT
Concentration: 100 µM
Time: 18 h
With `COc1cc(/C=C/C(=O)O)ccc1O` the viability was 97.8%.
For `Nc1c(Br)cc(Br)cc1CN[C@H]1CC[C@H](O)CC1`, the viability was 106%.
`CSCC1CN(/N=C/c2ccc([N+](=O)[O-])o2)C(=O)O1` (stereo not drawn) gave a viability of 65.4%.
The viability of `COc1ccc(/C=C/C(=O)Nc2ccccc2C(=O)O)cc1OC` is reported as 59.8%.
`CC(=O)O[C@H]1Cc2ccccc2N(C(N)=O)c2ccccc21` gave a viability of 120%.

Some of these lines once more (sample 1):
MAP kinase-interacting serine/threonine-protein kinase 1 (MKNK1, Homo sapiens, UniProt Q9BUB5) — remaining binding: 82%.
For Receptor-type tyrosine-protein kinase FLT3 (FLT3, Homo sapiens, UniProt P36888, D835V): remaining binding read 100%.
Inhibitor of nuclear factor kappa-B kinase subunit epsilon (IKBKE, Homo sapiens, UniProt Q14164) — remaining binding: 94%.
The remaining binding was 79% (Mast/stem cell growth factor receptor Kit (KIT, Homo sapiens, UniProt P10721, D816H)).
